Published values pooled from the literature.
A part holds a random share of what one study measured.
Chain of UniProt P20309 (whole entry, looked up): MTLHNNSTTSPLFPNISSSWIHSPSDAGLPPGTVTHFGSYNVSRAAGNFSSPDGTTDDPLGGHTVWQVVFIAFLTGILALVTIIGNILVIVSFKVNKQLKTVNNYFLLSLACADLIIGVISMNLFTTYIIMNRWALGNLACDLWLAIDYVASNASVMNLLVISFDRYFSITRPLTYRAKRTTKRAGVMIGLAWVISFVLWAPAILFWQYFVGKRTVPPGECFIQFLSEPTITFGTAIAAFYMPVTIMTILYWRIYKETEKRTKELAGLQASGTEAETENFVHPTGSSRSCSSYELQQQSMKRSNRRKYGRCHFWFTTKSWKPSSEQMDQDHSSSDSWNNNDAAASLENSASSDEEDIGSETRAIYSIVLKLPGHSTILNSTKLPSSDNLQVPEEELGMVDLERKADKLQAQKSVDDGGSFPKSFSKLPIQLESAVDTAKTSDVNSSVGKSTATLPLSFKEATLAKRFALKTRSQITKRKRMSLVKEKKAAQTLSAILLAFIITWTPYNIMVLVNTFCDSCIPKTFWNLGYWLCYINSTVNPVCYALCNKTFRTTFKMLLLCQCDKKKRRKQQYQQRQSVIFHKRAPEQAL
Chain of UniProt P21918 (whole entry, looked up): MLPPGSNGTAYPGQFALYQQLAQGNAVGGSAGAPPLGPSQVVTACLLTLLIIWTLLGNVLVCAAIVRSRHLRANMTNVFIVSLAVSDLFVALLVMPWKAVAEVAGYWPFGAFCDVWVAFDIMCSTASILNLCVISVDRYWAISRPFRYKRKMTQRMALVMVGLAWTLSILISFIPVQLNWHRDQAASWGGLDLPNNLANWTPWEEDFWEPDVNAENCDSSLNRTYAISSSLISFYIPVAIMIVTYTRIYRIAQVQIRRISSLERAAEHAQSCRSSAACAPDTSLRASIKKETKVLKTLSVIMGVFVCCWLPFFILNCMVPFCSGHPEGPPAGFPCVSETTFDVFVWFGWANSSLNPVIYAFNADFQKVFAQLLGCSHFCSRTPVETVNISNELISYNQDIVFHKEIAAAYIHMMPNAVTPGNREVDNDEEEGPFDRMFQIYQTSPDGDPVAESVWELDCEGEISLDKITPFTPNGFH
Chain of UniProt P41143 (whole entry, looked up): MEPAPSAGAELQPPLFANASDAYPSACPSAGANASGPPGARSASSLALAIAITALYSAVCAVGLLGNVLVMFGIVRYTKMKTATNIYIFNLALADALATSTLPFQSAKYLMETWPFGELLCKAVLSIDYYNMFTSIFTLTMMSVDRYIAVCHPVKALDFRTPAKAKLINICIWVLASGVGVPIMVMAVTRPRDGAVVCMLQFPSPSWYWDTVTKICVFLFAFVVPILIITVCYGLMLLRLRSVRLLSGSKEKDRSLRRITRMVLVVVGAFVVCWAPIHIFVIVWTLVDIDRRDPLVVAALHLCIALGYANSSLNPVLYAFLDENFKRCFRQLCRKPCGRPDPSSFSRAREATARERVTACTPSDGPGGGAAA

Block 1 — method: Phase 2a trial; refers to: influenza like illness; host: idiopathic pulmonary fibrosis patients
Compound: CC(C)n1cnc(-c2ccc(F)cc2)c1-c1ncc(C(=O)Nc2ccc(N3CCN(C)CC3)cc2)[nH]1
| dose | notes | patients with adverse events |
| --- | --- | --- |
| 60 mg once daily | grade 1 maximum intensity | 0% |
| 60 mg once daily | grade 4 maximum intensity | 0% |
| 30 mg once daily | grade 2 maximum intensity | 0% |

Block 2 — cell line: HEK-293T; organism: VSV pseudotyped with VSV-G; concentration: 10 µM; time: 16 h
| SMILES | pseudovirus infection [%] |
| --- | --- |
| CN1CCCCC1CCN1c2ccccc2Sc2ccc([S+](C)[O-])cc21 (centres unmarked) | 125 |
| CN1CCN(C2=Nc3cc(Cl)ccc3Nc3ccccc32)CC1 | 105 |
| Clc1ccc(CO/N=C(\Cn2ccnc2)c2ccc(Cl)cc2Cl)c(Cl)c1 | 110 |
| CCCCOCCOCCOCc1cc2c(cc1CCC)OCO2 | 119 |

Block 3 — read-out: cell-free assay; concentration: 10 µM
SMILES: CC(C)(C)OC(=O)N1CCCC1CNC1CCC(c2cc(F)ccc2F)(S(=O)(=O)c2ccc(Cl)cc2)CC1 (centres unmarked)
| target | inhibition |
| --- | --- |
| D(1B) dopamine receptor (DRD5, Homo sapiens, UniProt P21918) | 13.1% |
| Muscarinic acetylcholine receptor M3 (CHRM3, Homo sapiens, UniProt P20309) | -16.8% |
| Delta-type opioid receptor (OPRD1, Homo sapiens, UniProt P41143) | 21.4% |

Further values, each from its own experiment
| Compound | method | sample | pH | measurement | result |
| --- | --- | --- | --- | --- | --- |
| Cc1ncsc1-c1ccc(CNC(=O)[C@@H]2C[C@@H](O)CN2C(=O)[C@@H](NC(=O)CCCCCNC(=O)Cc2ccccc2)C(C)(C)C)cc1 | exponential regression of PRP log k' | 1,9-decadiene/PBS | pH 7.4 | logD (1,9-decadiene/water) | -2.97 |

For quick reference, copied from above (block 3):
| target | inhibition |
| --- | --- |
| Delta-type opioid receptor (OPRD1, Homo sapiens, UniProt P41143) | 21.4% |
